Experimental data gathered from unrelated publications.
A part holds a random share of what one study measured. Values joined by “and” are separate records of one study, mostly repeats; a detail may differ.
Sequence of UniProt O95819 (whole entry, looked up): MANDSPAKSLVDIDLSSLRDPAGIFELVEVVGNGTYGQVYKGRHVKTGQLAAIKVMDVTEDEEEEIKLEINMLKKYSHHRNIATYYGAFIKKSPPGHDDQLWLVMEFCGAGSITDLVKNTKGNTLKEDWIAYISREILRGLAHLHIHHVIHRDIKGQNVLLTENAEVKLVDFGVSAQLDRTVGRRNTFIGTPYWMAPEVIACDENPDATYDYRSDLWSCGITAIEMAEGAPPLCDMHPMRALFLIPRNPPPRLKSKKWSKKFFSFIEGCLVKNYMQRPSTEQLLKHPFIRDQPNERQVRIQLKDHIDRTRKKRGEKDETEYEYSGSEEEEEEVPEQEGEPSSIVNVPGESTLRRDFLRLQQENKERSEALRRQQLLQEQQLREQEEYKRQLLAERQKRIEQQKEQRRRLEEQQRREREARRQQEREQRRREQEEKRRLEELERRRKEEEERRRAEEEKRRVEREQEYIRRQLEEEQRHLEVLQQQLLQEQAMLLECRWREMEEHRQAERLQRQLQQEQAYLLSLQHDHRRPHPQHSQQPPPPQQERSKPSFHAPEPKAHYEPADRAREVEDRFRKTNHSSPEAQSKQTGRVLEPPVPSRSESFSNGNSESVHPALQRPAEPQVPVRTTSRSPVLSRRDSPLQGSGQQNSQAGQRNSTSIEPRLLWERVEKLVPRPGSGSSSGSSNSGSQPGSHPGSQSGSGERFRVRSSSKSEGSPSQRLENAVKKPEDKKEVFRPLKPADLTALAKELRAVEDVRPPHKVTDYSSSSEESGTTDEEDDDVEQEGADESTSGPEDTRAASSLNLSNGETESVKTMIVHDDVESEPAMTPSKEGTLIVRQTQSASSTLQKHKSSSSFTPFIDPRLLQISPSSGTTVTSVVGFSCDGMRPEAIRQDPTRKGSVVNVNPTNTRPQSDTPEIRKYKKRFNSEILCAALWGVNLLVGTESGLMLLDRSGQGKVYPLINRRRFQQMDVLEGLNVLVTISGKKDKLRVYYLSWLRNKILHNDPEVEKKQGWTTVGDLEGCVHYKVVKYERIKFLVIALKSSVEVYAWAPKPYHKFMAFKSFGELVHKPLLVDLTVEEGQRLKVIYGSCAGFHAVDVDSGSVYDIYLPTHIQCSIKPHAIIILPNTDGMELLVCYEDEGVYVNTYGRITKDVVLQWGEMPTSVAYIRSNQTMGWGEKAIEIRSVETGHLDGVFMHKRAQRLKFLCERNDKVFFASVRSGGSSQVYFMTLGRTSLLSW
Sequence of UniProt P33981 (whole entry, looked up): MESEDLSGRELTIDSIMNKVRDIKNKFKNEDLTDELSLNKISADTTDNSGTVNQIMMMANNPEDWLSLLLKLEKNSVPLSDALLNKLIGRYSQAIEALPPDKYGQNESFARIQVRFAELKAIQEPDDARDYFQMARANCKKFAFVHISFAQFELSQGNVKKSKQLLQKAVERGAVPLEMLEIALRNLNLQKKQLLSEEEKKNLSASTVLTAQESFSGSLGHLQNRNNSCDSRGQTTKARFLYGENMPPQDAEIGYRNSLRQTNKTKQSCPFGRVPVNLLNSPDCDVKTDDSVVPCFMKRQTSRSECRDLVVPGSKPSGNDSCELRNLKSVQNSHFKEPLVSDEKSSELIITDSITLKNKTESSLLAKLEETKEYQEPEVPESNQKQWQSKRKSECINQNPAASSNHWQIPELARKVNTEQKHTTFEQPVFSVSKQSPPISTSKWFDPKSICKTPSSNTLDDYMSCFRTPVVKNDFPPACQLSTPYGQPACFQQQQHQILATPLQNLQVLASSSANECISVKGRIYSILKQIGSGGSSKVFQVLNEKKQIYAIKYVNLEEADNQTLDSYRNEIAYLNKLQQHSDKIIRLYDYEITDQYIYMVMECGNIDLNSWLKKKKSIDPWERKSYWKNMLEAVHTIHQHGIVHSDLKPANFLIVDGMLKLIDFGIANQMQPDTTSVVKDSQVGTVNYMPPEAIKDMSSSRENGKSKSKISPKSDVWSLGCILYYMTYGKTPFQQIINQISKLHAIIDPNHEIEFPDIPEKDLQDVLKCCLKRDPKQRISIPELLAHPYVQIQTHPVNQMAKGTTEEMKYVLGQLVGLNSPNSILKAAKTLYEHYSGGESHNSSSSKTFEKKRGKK
Sequence of UniProt Q9UQM7 (whole entry, looked up): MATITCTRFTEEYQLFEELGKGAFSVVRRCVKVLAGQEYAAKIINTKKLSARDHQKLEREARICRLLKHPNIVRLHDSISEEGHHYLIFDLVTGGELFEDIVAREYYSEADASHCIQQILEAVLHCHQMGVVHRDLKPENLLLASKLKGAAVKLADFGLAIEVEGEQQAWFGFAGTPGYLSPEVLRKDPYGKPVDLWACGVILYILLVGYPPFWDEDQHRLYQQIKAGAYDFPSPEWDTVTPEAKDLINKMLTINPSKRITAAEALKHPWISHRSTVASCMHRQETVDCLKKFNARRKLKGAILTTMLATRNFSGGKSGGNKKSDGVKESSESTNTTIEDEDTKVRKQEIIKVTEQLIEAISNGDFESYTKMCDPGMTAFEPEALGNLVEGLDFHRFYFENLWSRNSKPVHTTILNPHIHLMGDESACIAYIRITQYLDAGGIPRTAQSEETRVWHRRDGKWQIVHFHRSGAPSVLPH
Sequence of UniProt O00750 (whole entry, looked up): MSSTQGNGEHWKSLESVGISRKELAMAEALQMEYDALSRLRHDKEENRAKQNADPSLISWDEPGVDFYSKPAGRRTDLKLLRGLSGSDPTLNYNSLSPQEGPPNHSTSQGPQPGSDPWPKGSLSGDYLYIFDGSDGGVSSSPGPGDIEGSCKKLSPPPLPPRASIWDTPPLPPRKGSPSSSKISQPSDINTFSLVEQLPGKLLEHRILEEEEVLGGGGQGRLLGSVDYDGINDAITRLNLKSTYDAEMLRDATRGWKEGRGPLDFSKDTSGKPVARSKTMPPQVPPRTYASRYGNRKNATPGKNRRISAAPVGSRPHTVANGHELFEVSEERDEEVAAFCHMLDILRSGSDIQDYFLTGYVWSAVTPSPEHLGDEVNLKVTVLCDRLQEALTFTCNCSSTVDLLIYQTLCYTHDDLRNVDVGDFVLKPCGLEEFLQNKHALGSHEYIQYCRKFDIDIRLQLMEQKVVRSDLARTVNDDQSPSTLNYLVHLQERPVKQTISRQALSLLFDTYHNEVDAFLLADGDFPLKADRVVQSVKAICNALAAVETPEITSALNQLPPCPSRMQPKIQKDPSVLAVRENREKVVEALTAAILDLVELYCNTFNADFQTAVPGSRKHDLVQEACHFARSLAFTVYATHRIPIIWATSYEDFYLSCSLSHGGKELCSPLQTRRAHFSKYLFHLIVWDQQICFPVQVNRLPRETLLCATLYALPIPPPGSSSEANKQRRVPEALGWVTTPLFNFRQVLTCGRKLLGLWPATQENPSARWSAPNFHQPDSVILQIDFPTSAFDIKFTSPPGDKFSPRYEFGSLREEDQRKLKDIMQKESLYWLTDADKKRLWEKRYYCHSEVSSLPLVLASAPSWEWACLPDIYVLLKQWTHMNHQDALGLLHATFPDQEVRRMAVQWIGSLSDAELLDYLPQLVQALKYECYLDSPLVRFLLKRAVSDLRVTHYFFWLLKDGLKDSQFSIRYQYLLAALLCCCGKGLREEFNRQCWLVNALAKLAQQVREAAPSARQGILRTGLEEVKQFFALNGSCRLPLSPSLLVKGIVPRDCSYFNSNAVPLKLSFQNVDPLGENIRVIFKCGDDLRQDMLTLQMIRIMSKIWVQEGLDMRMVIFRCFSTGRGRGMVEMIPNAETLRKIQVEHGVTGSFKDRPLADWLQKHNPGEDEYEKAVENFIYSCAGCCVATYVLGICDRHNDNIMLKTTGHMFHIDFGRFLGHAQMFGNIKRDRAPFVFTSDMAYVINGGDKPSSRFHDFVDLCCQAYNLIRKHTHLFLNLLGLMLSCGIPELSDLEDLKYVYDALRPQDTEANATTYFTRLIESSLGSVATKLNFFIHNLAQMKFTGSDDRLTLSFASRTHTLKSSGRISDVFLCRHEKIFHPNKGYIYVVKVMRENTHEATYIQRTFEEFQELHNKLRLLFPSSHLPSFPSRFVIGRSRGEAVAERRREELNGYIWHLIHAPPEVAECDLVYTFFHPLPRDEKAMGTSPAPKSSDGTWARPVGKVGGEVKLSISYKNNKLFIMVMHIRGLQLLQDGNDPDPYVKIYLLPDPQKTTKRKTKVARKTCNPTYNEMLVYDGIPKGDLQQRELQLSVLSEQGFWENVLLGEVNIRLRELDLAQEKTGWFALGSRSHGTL
Sequence of UniProt Q15759 (whole entry, looked up): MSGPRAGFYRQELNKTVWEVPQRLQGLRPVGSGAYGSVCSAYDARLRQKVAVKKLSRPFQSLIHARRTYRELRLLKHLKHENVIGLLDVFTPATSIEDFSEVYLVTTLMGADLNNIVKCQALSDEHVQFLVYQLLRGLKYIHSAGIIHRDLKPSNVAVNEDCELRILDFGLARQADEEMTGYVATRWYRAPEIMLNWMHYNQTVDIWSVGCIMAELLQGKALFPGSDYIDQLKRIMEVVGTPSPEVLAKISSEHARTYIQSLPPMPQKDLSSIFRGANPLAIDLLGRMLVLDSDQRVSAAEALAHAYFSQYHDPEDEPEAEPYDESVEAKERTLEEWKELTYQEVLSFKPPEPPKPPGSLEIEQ

Sample 1
Target: UBE2E2 UBC core domain (UniProt Q96LR5)
Sequence of UniProt Q96LR5 (whole entry, looked up): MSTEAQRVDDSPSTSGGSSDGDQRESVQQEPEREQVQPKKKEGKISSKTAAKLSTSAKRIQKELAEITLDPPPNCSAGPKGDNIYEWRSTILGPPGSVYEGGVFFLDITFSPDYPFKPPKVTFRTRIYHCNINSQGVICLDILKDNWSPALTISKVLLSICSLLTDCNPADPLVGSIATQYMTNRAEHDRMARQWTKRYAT
Method: yeast two-hybrid
Matrix: yeast
Notes: mostly zero background
Relative to: not given
Direction: higher = stronger interaction
Measurement: lacZ reporter activity
B1: TRIM37 RING domain (UniProt O94972); chain SVESIAEVFRCFICMEKLRDARLCPHCSKLCCFSCIRRWLTEQRAQCPHCRAPLQLRELVN
B2: RNF122 RING domain (UniProt Q9H9V4); chain AKKLQLYGQTCAVCLEDFKGKDELGVLPCQHAFHRKCLVKWLEVRCVCPMCNKPIASPSEAT
B3: RNF183 RING domain (UniProt Q96D59); chain EQQGRELEAECPVCWNPFNNTFHTPKMLDCCHSFCVECLAHLSLVTPARRRLLCPLCRQPTVLASGQP
B4: MEX3B RING domain (UniProt Q6ZN04); chain SGLRRKGSRDCSVCFESEVIAALVPCGHNLFCMECANRICEKSEPECPVCHTAVTQAIRIF
Molecule = B1 (TRIM37 RING domain); value = 0
Molecule = FVKTVEDKYKCEKCHLVLCSPKQTECGHRFCESCMAALLSSSSPKCTACQESIVKDKVF (TRAF3 RING domain (UniProt Q13114)); value = 0
Molecule = MNDVLENELQCIICSEYFIEAVTLNCAHSFCSYCINEWMKRKIECPICRKDIKSKTYSL (RNF8 RING domain (UniProt O76064)); value = 0
Molecule = AEADPLGRFTCPVCLEVYEKPVQVPCGHVFCSACLQECLKPKKPVCGVCRSALAPGVRAV (RNF114 RING domain (UniProt Q9Y508)); value = 0
Molecule = B2 (RNF122 RING domain); value = 0
Molecule = B3 (RNF183 RING domain); value = 0
Molecule = B4 (MEX3B RING domain); value = 0
Molecule = RYRQMEERITCPICIDSHIRLVFQCGHGACAPCGSALSACPICRQPIRDRIQIF (MIB2 RING domain (UniProt Q96AX9)); value = 0

Sample 2
SMILES: c1ccc(N2CCN(Cc3nc4ccccc4[nH]3)CC2)nc1
Method: competition with immobilised ligand
Concentration: 1 µM
Measurement: remaining binding
target = MAPK11 (Homo sapiens, UniProt Q15759); observed = binding; value = 88%
target = TTK (Homo sapiens, UniProt P33981); observed = binding; value = 100%
target = CAMK2A (Homo sapiens, UniProt Q9UQM7); observed = cell-free assay; value = 100%
target = PTK6 (Homo sapiens, UniProt Q13882); observed = binding; value = 100%
target = Ribosomal protein S6 kinase alpha-2, C-terminal kinase domain (RPS6KA2, Homo sapiens, UniProt Q15349); observed = binding; value = 100%
target = KIT (Homo sapiens, UniProt P10721, A829P); observed = binding; value = 100%
target = PRKG2 (Homo sapiens, UniProt Q13237); observed = binding; value = 100%
target = BUB1 (Homo sapiens, UniProt O43683); observed = binding; value = 100%
target = PIK3C2B (Homo sapiens, UniProt O00750); observed = cell-free assay; value = 85%
target = ROCK2 (Homo sapiens, UniProt O75116); observed = binding; value = 100%
target = CDK2 (Homo sapiens, UniProt P24941); observed = binding; value = 100%
target = DYRK1A (Homo sapiens, UniProt Q13627); observed = cell-free assay; value = 100%
target = PIK3CD (Homo sapiens, UniProt O00329); observed = cell-free assay; value = 69%
target = Tyrosine-protein kinase ABL1, phosphorylated (ABL1, Homo sapiens, UniProt P00519, T315I); observed = binding; value = 100%
target = MAP4K4 (Homo sapiens, UniProt O95819); observed = binding; value = 100%
target = Ribosomal protein S6 kinase alpha-1, C-terminal kinase domain (RPS6KA1, Homo sapiens, UniProt Q15418); observed = binding; value = 100%
target = MET (Homo sapiens, UniProt P08581); observed = cell-free assay; value = 100%

Sample 3
Cell line: mouse MPNST tumor cells
Method: high-content immunofluorescence imaging
Refers to: nuclear SOX9
Concentration: 10 µM
Time: 12 h
Notes: mean of 2 replicates
Relative to: DMSO control
Direction: higher = more nuclear SOX9
Measurement: nuclear SOX9 intensity
Structure (SMILES) = C[C@@H](O)[C@H]1C(=O)N2C(C(=O)O)=C(S[C@@H]3CN[C@H](C(=O)N(C)C)C3)[C@H](C)[C@H]12; value = 91.5 % of DMSO
Structure (SMILES) = O=C1[C@H](CC[C@H](O)c2ccc(F)cc2)[C@@H](c2ccc(O)cc2)N1c1ccc(F)cc1; value = 105 % of DMSO and 108 % of DMSO
Structure (SMILES) = Cc1nc(N)c2nnn(C[C@H]3CN(Cc4nccs4)CCO3)c2n1; value = 103 % of DMSO

Sample 4
Target: PABPC1L2, full length, GST fusion (mouse, UniProt A0ABA7IW68)
Method: RNAcompete
Molecule type: RNA
Matrix: in vitro
Concentration: 20 nM
Notes: 7-mer, probes averaged, single round
Relative to: mean of 7-mers
Direction: higher = stronger binding
Measurement: 7-mer Z-score
Target sequence (chain): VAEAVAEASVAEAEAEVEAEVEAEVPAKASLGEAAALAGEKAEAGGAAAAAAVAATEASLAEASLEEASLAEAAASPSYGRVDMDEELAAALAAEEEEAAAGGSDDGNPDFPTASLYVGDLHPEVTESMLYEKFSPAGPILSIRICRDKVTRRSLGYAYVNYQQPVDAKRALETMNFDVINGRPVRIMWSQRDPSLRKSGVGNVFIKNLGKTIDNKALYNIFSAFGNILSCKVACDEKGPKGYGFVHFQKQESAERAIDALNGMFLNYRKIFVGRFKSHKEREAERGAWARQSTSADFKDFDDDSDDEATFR
Strand = CGUGUAA; value = 0.173
Strand = UGAUCAG; value = -0.204
Strand = UGUCAGA; value = -0.171
Strand = CAUUGAG; value = -0.115
Strand = UUUUUGA; value = 0.0551
Strand = CCGGUUG; value = -0.38
Strand = ACAGCAU; value = -0.0826
Strand = AUUGCAU; value = -0.258

Sample 5
Organism: Sarcocystis neurona
Observed: parasite growth
Concentration: 10 µM
Time: 96 h
Relative to: untreated
Measurement: log2 fold change
SMILES = CN(C/C=C/C#CC(C)(C)C)Cc1cccc2ccccc12; value = 0.39
SMILES = OCc1cc(C(O)CNCCCCCCOCCCCc2ccccc2)ccc1O (stereo not drawn); value = -0.45
SMILES = CCN1CCC[C@H]1CNC(=O)c1c(O)c(Cl)cc(Cl)c1OC; value = -0.14

Some of these lines once more (sample 1):
Molecule = MNDVLENELQCIICSEYFIEAVTLNCAHSFCSYCINEWMKRKIECPICRKDIKSKTYSL (RNF8 RING domain (UniProt O76064)); value = 0
Molecule = AEADPLGRFTCPVCLEVYEKPVQVPCGHVFCSACLQECLKPKKPVCGVCRSALAPGVRAV (RNF114 RING domain (UniProt Q9Y508)); value = 0
Molecule = B2 (RNF122 RING domain); value = 0
Molecule = B3 (RNF183 RING domain); value = 0
Molecule = B4 (MEX3B RING domain); value = 0
Molecule = RYRQMEERITCPICIDSHIRLVFQCGHGACAPCGSALSACPICRQPIRDRIQIF (MIB2 RING domain (UniProt Q96AX9)); value = 0
